Assay results gathered from unrelated publications.
A part holds a random share of what one study measured.

Block 1
Target: Histone acetyltransferase KAT6A, both winged helices, GST fusion (KAT6A, Homo sapiens, UniProt Q92794, residues 1-181)
Method: protein binding microarray
Molecule type: double-stranded DNA, one strand shown
Sample: in vitro
Concentration: not given
Notes: 8-mer, flanks averaged, mean of 2 arrays, mostly near background
Reference: not given
Reading: higher = stronger binding
Residues (chain): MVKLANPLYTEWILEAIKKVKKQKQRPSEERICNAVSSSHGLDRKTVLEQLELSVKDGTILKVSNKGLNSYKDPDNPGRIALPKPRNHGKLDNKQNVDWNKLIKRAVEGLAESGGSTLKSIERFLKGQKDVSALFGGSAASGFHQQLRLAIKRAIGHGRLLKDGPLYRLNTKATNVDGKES
For `ATGTAATC`, the E-score was -0.124.
The E-score of `CGGCGGCC` is reported as 0.338.
With `TGCTATAA` the E-score was -0.214.
The E-score of `ACGATCAG` is reported as -0.0981.
For `ACCTGTCA`, the E-score was -0.111.
`CATCCAAC` gave an E-score of -0.121.
`CACAATAA` gave an E-score of -0.197.
`ATGCTCAA` gave an E-score of -0.119.
`GGTGACGA` has an E-score of -0.0571.
`CATGCTGC` has an E-score of -0.0679.
`CGTAAATC` has an E-score of 0.16.
With `ACTCGGCT` the E-score was 0.0383.
`AGGAACCA` has an E-score of -0.0438.
For `CTCAGGCC`, the E-score was -0.0321.
`CGGCCCCA` gave an E-score of 0.0633.
With `AAAGCTAC` the E-score was -0.197.
`GCCGATAC` has an E-score of 0.214.
The E-score of `ACTTCTCG` is reported as 0.0321.
`GAAACCGA` has an E-score of 0.0472.
`ACAGCGAT` gave an E-score of -0.0345.
The E-score of `CCAGAAAG` is reported as 0.00049.
With `GAACTAGC` the E-score was 0.1.

Block 2
Target: Ras GTPase-activating protein-binding protein 1, C-terminal RGG region (G3BP1, Homo sapiens, UniProt Q13283)
UniProt Q13283, sequence (whole entry, looked up): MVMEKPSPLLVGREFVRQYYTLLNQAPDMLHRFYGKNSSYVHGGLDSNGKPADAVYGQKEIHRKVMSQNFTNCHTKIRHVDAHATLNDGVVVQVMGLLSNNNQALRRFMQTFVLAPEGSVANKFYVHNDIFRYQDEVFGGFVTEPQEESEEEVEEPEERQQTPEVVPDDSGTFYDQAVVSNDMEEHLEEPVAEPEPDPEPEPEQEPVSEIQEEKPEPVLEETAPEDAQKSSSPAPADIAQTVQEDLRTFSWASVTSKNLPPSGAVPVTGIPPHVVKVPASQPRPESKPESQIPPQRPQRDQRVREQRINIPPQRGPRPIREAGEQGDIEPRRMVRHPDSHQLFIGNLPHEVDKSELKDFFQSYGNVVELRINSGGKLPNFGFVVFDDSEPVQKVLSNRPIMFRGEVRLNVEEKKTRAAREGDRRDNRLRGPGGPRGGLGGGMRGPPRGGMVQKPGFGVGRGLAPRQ
Method: RNA Bind-n-Seq
Molecule type: RNA
Sample: in vitro
Concentration: 1 µM
Notes: whole 134-nt RNA, ends assumed
Added: 150 mM KCl
Reference: input library
Reading: higher = stronger binding
`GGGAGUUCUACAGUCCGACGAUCUAACUUUAGAGGAGGAUCUGAUGGAUAUGGCAGUGGACGUGGAUUUGGGGAUGGCUAUAAUGGGUAUGGAGAAGGACCUGGAGGUGGCAAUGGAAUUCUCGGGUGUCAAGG` gave a log2 enrichment of -0.579.
`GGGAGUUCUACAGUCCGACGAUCUAAGGAUUCUAUCUGCUUACUGCUACAGACCUAUGUGUUAAGGAAUUCUUCUCCUCCUCCUUGCGUAGAAGUUGAUCAGCACUGUGGUCAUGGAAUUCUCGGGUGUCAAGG` gave a log2 enrichment of -0.334.
With `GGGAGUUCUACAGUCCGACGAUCUUUCAGGGGAGCUCUUUGCUCAGGCCCCGGUGGAUCAGUUUCCUGGCACAGCUGUGGAGAGUGUGACGGAUUCCAGCAGGUACUUCGUGAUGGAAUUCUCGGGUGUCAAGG` the log2 enrichment was -1.85.
With `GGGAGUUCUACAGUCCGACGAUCCAAGUCCUGUGCUACACAUCGUAUGUACCGAAUCGGGAAAAAGGGUUUGGGAGGGAAAGUAUUAUGUUACGCCGUUCGGAUCUGCACUUCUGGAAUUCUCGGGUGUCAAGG` the log2 enrichment was 1.96.
`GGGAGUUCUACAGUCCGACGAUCUCCUCAAGUCCUGUGCUACACAUCGUAUGUACCGAAUCGGAGGGAGGAGGGAAAGUAUUAUGUUACGCCGUUCGGAUCUGCACUUCCAGCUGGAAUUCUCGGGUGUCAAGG` gave a log2 enrichment of -0.996.
`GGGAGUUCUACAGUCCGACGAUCCACAGACAACACGCACCCACACAGACACAGAGGGAAGGGGUUGGGAUGGGGACAGGGUGCACAGCAGGGCGGGGAAAGACCCCAGCCCCUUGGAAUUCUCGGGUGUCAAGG` has a log2 enrichment of -0.144.
With `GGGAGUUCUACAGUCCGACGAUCCUGUGCUACACAUCGUAUGUACCGAAUCGGGAAAAAAAGGGAAAAAAAGGGGAAAAAAAGGGAAAGUAUUAUGUUACGCCGUUCGGAUCUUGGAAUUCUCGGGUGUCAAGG` the log2 enrichment was -1.18.
`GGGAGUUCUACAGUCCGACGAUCCCUGUGCUACACAUCGUAUGUACCGAAUCGGGGUUUUUGGGGAAAAAAAGGGGUUUGGGGAAAGUAUUAUGUUACGCCGUUCGGAUCUGCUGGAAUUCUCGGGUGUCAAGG` gave a log2 enrichment of 0.647.
For `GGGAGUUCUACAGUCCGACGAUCUCAAGUCCUGUGCUACACAUCGUAUGUACCGAAUCGGGAAGGGAAGGGGAAGGGAAAGUAUUAUGUUACGCCGUUCGGAUCUGCACUUCCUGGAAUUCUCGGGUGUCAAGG`, the log2 enrichment was 2.54.
`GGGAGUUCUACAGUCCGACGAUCCUGUGCUACACAUCGUAUGUACCGAAUCGGGCCCCCCCGGCCCCCCCGGGGCCCCCCCGGGGAAAGUAUUAUGUUACGCCGUUCGGAUCUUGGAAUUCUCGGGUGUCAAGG` has a log2 enrichment of -2.46.

Block 3
Target: RNA binding protein fox-1 homolog 2, RRM domain, GST-SBP tag (RBFOX2, Homo sapiens, UniProt O43251-10, residues 100-194)
Method: RNA Bind-n-Seq
Molecule type: RNA
Sample: in vitro
Concentration: 365 nM
Notes: natural RNA segment, single round, ends assumed
Reference: no-protein control
Reading: higher = stronger binding
Construct (chain): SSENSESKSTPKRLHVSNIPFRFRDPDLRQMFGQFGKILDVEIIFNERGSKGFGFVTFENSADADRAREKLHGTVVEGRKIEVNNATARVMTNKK
`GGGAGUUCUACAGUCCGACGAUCUUAUGAGUAGAAGCAAUAAGAAGGUGUCCUUAUGGUCUUAGGAAUAAUAGUUCCAAUGUAUUGGCAUAAUUUGUUUGAAUGUCUUUAUUUUGAUAUUAACACCGGCAUAAUGGAAUUCUCGGGUGCCAA` — result for “RBNS enrichment (R)”: 0.837.
`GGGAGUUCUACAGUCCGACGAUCGCUGUUGUCUGUGCCCCAGAGGUGCUACCUGUAGACAGGGACCAACUCCAUGUGUGUGUGUUAAGUGUUUGACUCCAAUUAAGACUCCCAAGCAAAUCCUGCAUAUUCCAUGGAAUUCUCGGGUGCCAA` — result for “RBNS enrichment (R)”: 0.546.
For `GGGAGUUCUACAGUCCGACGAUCGAAUGAUGGGACGGCCUGAUGCUGUCAUGCUCUCCACUGCACCUGUGGCAGCCUCCUGAGAGCCACCAAGAUCUGGGAUGAAGGCCACACCAGCCAUGUCUGCUGAAGGGUGGAAUUCUCGGGUGCCAA`, “RBNS enrichment (R)” read 0.414.
For `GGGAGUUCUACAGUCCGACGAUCGGGGGAGCCACUGGUUUCGCUCCUCCUGAAGGGAGCUCUGGACCCUCAGGGCCCCCACAGGGGAAGGACCCAGCUCCUGUACAUACAUUUUAUUGCAUGCACUGUGACCUUGGAAUUCUCGGGUGCCAA`, “RBNS enrichment (R)” read 0.547.
Under “RBNS enrichment (R)”, `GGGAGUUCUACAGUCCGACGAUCCAGAUGGUUGUGAGCCACCAUGUGGUUGCUGGGAAUUGAACUCAGGACCUUUGGAUAAGAAACCAGUGUUCUUAACUGCUGAGCCAUCUCUCCAGUUAGCUAACUGGAUUUGGAAUUCUCGGGUGCCAA` is recorded as 0.212.
`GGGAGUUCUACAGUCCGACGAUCUUAUUAAUAUUAUUAUGACUUUUUGUAAGAGACUGAGGCAAGGCCACGCUUCGCUGCUACCACCCUGGGCUGGACUGGAGGGUGGGUGCGCCAACUCCCACGCAUUCGUGUGGAAUUCUCGGGUGCCAA` — result for “RBNS enrichment (R)”: 0.404.
Under “RBNS enrichment (R)”, `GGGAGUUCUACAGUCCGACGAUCAUUUAUAUUUCUGCUUGCACCAUUUCCAUAGCAGCUGACAAAGGCAAAAUCAUGAAAUAGAAUCAUUUCUAUAAAUUGCUUCUUUAAGUUUUCUCUAAAUUUUGCCUCUAUGGAAUUCUCGGGUGCCAA` is recorded as 0.682.
`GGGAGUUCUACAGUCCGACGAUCAUGGGUCCAAAGCUCAGUACUGGGGAGCCUGGGGUCCCCACUUGAAUGUGCAGCAGGAGGUCCUUUUCCUUCUCUACCUUCCUCUUCUCCCUUUCCCUGGGGCCAGAUCAUGGAAUUCUCGGGUGCCAA` — result for “RBNS enrichment (R)”: 0.33.
`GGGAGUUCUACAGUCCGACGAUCGGUUCCUCUAAUAAGGACCAGCCUUCUACCCUGGUGGAGACCAAAGGCCUCCUCCCGUUUCUCAUCAGCUUGCCUGCUACCACUUUGCCUUCUGGCCUCCAGCUGGGCCAUGGAAUUCUCGGGUGCCAA`: “RBNS enrichment (R)” 0.855.
`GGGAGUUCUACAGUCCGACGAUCUCUCCAUACAAUAAGACACCUCCGAAGCAAAAUGGCGGCCCUUGCUCCAGGCAGGACAUCAGACUGUCUGGGGAGUUGGCCCUGGGCUUCUGUGUUGUGUGCAGAGACUGUGGAAUUCUCGGGUGCCAA` — result for “RBNS enrichment (R)”: 0.332.
`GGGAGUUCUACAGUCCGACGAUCCCUCUAUCUUGCAUGGGAAGGAGGGAAAUAUGCGUUAUUUACUGUAAAAAAAUGGAAUUUAAAGGAAGGCUUGUGUCACCUUUUGACUAUAAAUAAAUCCUUUCUACUGGUGGAAUUCUCGGGUGCCAA` — result for “RBNS enrichment (R)”: 10.5.
`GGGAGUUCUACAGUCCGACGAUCGAGGGCUUACUGAUACAAUGAAAUGAGUUUCAUGACUUUUUUUUUUUUUAAACACUUUUUGAAAUAGAGUGUGCUGUGUUUAAAACCAAAAAUAUGCAUGUUGUCUCUGAUGGAAUUCUCGGGUGCCAA` — result for “RBNS enrichment (R)”: 10.6.

Block 4
Target: Interferon regulatory factor 5, full length, phosphomimetic (IRF5, Homo sapiens, UniProt Q13568-2, residues 1-514, K96S/S451D/S453D/S456D/S462D)
Method: protein-binding microarray
Molecule type: double-stranded DNA, one strand shown
Sample: in vitro
Concentration: 250 nM
Notes: 60-bp whole probe
Added: salmon DNA 0.4 mg/ml
Reference: random background probes
Reading: higher = stronger binding
All sequences stand within: GCCTAGCAC … GTCTTGATTCGCTTGACGCTGCTG
With `TTAGGACTGGGGTATCGGCTAGTGCTA` the log fluorescence was 0.374 z-score.
For `TTAAGACTGCTTATCCTTTAGTGCTAG`, the log fluorescence was 0.146 z-score.
`TTAGGTATCCACACTGGGTTAGTGCTA` gave a log fluorescence of -0.203 z-score.
For `TTAGGTATCGGGAATGGGTTAGTGCTA`, the log fluorescence was 2.2 z-score.
`CTGGTTTTACTTTCTATCTCGTGCTAG` has a log fluorescence of 5.1 z-score.
The log fluorescence of `TTAGGTTTCGACACTCGGTTAGTGCTA` is reported as 5.7 z-score.
`TGAGCTTACAATATAAAAGGGTGCTAG` has a log fluorescence of 0.211 z-score.
For `TTAGATCTAAGACTGGATTAGTGCTAG`, the log fluorescence was 0.00806 z-score.
With `GACGAACTGGGGACGGGAGACGTGCTA` the log fluorescence was -0.529 z-score.
For `GACGGTATGGACTATCGGGACGTGCTA`, the log fluorescence was 0.967 z-score.
`TCTTCTGGTGTGTCTGAAGAGTGCTAG` gave a log fluorescence of -0.0423 z-score.
With `TCATTTCCATTTTCTGAAACTGTGCTA` the log fluorescence was 2.51 z-score.
`TTAGGTTTCGACTTTCGGCTAGTGCTA` has a log fluorescence of 9.46 z-score.
`TTAGAACTGAGTATCGATTAGTGCTAG` gave a log fluorescence of 6.29 z-score.
`GACGTTCTCCTTTTCCTGACGTGCTAG` gave a log fluorescence of 0.29 z-score.
With `GACGGACTGCTTATCCTGATGTGCTAG` the log fluorescence was -0.355 z-score.
With `TTAGGTCTCCGTTTCCTTTAGTGCTAG` the log fluorescence was 0.0693 z-score.
The log fluorescence of `GACGATCTCATACTGGAGACGTGCTAG` is reported as -0.279 z-score.
`TTAGCACTGGGTATCGGTTAGTGCTAG` has a log fluorescence of 4.51 z-score.
`GACGCACTGGGGACTGGAGACGTGCTA` has a log fluorescence of -0.477 z-score.
With `TTTGGACTGCTACTGCTTTAGTGCTAG` the log fluorescence was -0.235 z-score.
The log fluorescence of `TTAGATTTCAGTCTGGATTAGTGCTAG` is reported as 2.04 z-score.
For `GACGATTTCGGGTTTCGAAACGTGCTA`, the log fluorescence was 6.12 z-score.
With `GACGGACTGGACTTTCGGGACGTGCTA` the log fluorescence was 3.71 z-score.
With `TTAGGTCTCCTTCTCTTTTAGTGCTAG` the log fluorescence was 0.178 z-score.

Some of these lines once more (block 4):
`TTAGGTATCCACACTGGGTTAGTGCTA` gave a log fluorescence of -0.203 z-score.
For `TTAGGTATCGGGAATGGGTTAGTGCTA`, the log fluorescence was 2.2 z-score.
`CTGGTTTTACTTTCTATCTCGTGCTAG` has a log fluorescence of 5.1 z-score.
The log fluorescence of `TTAGGTTTCGACACTCGGTTAGTGCTA` is reported as 5.7 z-score.
`TGAGCTTACAATATAAAAGGGTGCTAG` has a log fluorescence of 0.211 z-score.
For `TTAGATCTAAGACTGGATTAGTGCTAG`, the log fluorescence was 0.00806 z-score.
With `GACGAACTGGGGACGGGAGACGTGCTA` the log fluorescence was -0.529 z-score.
For `GACGGTATGGACTATCGGGACGTGCTA`, the log fluorescence was 0.967 z-score.
`TCTTCTGGTGTGTCTGAAGAGTGCTAG` gave a log fluorescence of -0.0423 z-score.
With `TCATTTCCATTTTCTGAAACTGTGCTA` the log fluorescence was 2.51 z-score.
`TTAGGTTTCGACTTTCGGCTAGTGCTA` has a log fluorescence of 9.46 z-score.
